Experimental data gathered from unrelated publications.
Compare with care: the assays were run in different laboratories. Several values in a cell are separate wells, animals, samples, runs or records.
LYN: Tyrosine-protein kinase Lyn (LYN, Homo sapiens, UniProt P07948)
LYN isoform B: Tyrosine-protein kinase Lyn, isoform B (LYN, Homo sapiens, UniProt P07948)

CNC(=O)C[C@H](Cc1ccc(C#N)cc1)NC(=O)c1cc(-c2ccc(CN[C@H](C)c3ccc(C)cc3)o2)ccc1Cl
activity vs control (LYN; enzyme activity, inhibitor; 1 µM): 100%

Nc1ncc(-c2cc(-c3cnn(CC(F)(F)F)c3)ncc2F)nc1C(=O)NC1CNCC(F)C1 (centres unmarked)
remaining activity (LYN; enzyme activity; 1 µM; baseline: DMSO control): 90.6%

Cc1cccc(O[C@H]2CCC[C@@H](C(C)CNCc3ccncc3)C2)c1 (relative stereo)
inhibition (LYN isoform B; kinome profiling; 10 µM): -13%

O=C(O)CCC(=O)c1cccc(NS(=O)(=O)c2c[nH]c3ncccc23)c1
remaining activity (LYN; kinase activity, radiometric; 10 µM): 93%

C=CC(=O)N1CCCC(n2c(=O)c3ncccc3n(Cc3ccc(Oc4ccccc4)cc3)c2=O)C1 (centres unmarked)
remaining binding (LYN; cell-free assay, competition with immobilised ligand; 1 µM): 100%

NC(=O)[C@@H](O)C[C@H]1CCc2sc3ncnc(O[C@H]4CC[C@H](N5CCOCC5)CC4)c3c21
inhibition (LYN isoform B; radioisotope kinase; 10 µM): 44%

O=C=[N][Ru-4]123([n]4c5ccc(O)cc5c5c6c(c7cc(F)c[n+]1c7c54)C(=O)NC6=O)[S+]1CC[S+]2CC[S+]3CC1 (centres unmarked)
remaining activity (LYN; enzyme activity; 100 nM, human enzyme, with: 10 µM ATP; baseline: untreated): 86%

COc1c(Cl)cccc1Nc1c(-c2ccncc2C#C[C@@]2(C)CCCN2C(=O)/C=C/CN(C)C)[nH]c2c1C(=O)NCC2
remaining binding (LYN; binding, competition with immobilised ligand; 3 µM): 86%

CN1CCN(Cc2ccc(-c3ccc(CO[C@H]4CCC[C@@H]4NC(=O)c4cc(-c5cnn(C)c5)cnc4N)cc3)cc2)CC1
inhibition (LYN isoform B; SelectScreen kinase profiling; 0.1 µM): 11%

CCn1cc(C(=O)O)c(=O)c2c(N)c(F)c(NC3CCCCC3)cc21
inhibition (Tyrosine-protein kinase Lyn, isoform A (LYN, Homo sapiens, UniProt P07948); kinase activity; 0.1 µM, with: ATP at Km): 0.8%

C=CC(=O)Nc1cccc(-c2cnc3[nH]cc(C(=O)NC(C)(C)C)c3n2)c1
inhibition (LYN isoform B; kinase activity, inhibitor, kinase panel; 0.1 µM): 8% and 11%

Nc1ncc2c(n1)-c1c([nH]c3ccc(C4=CCOCC4)cc13)CCC2
remaining binding (LYN; binding, competition with immobilised ligand; 1 µM): 100%

C=CC(=O)N1Cc2nc(-c3cc(-c4cc(Cl)cnc4Cl)c(F)cc3F)n(-c3ccncn3)c2C1
inhibition (LYN; kinome panel; 1 µM): 3.1%

COc1cc(Nc2nccc(-c3cnn4nc(OC)ccc34)n2)cc(C(F)(F)F)c1
remaining binding (LYN; binding, competition with immobilised ligand; 1 µM): 100%

Repeated from above:
COc1cc(Nc2nccc(-c3cnn4nc(OC)ccc34)n2)cc(C(F)(F)F)c1
remaining binding (LYN; binding, competition with immobilised ligand; 1 µM): 100%
